# Measured values gathered from unrelated publications.
# Each line is one published result; not all experiments were run side by side. Numbers after ± are the reported error.
SMILES,test,system,setting,scale,quantity,result
CC(C)[C@H](NC(=O)CNC(=O)[C@H](CCC(N)=O)NC(=O)[C@H](C)N)C(=O)O,LC-MS/MS,"human, plasma","intravenous, 20 mg/kg three times daily, day 3, first dose, 10 min infusion, geometric mean",,AUC(0-inf),566 ng·h/mL
CNC(=O)c1ccc(N2CCN(Cc3ccc4nc(C)c(=O)[nH]c4c3F)CC2)c([18F])n1,,rat liver microsomes,90 min,,remaining intact tracer,> 95%
Cn1c(=O)oc2ccc(-c3ccc(CC(C#N)NC(=O)C4CNCCCO4)c(F)c3)cc21 (centres unmarked),,human,"oral, 20 mg once daily, treatment-related AE, multiple ascending dose",,lymphadenopathy incidence,11.1%
O=C(O)C1OC(OC2C(COS(=O)(=O)O)OC(OC3C(C(=O)O)OC(OC4C(COS(=O)(=O)O)OC(OC5C(C(=O)O)OC(OC6C(COS(=O)(=O)O)OC(OC7C(C(=O)O)OC(OC8C(COS(=O)(=O)O)OC(OC9C(C(=O)O)OC(OC%10C(COS(=O)(=O)O)OC(OC%11C(C(=O)O)OC(Oc%12ccc([N+](=O)[O-])cc%12)C(O)C%11O)C(NS(=O)(=O)O)C%10O)C(OS(=O)(=O)O)C9O)C(NS(=O)(=O)O)C8O)C(OS(=O)(=O)O)C7O)C(NS(=O)(=O)O)C6O)C(OS(=O)(=O)O)C5O)C(NS(=O)(=O)O)C4O)C(OS(=O)(=O)O)C3O)C(NS(=O)(=O)O)C2OS(=O)(=O)O)C(O)C(O)C1OC1OC(COS(=O)(=O)O)C(O)C(O)C1NS(=O)(=O)O (centres unmarked),,"rat, spleen","intravenous, 3600 µg/kg per day, 7 days, day 8",,organ-to-body weight ratio,0.25 ± 0.02
COc1cc2c(cc1OC)CN(CCCCn1ccc3cc(OCC[18F])ccc31)C2,,"male CD-1 mouse, liver","intravenous, 1 h",,tracer uptake,18.3 %ID/g
Cc1[nH]nc2c1N=C(c1ccccc1Cl)c1cnc(N3CCOCC3)cc1N2,item: radioactivity,"human male, urine and feces","oral, 10 mg",baseline: dose,fraction absorbed,≥ 30.9%
Cc1cc2c(cc1C1(c3ncc(C(=O)O)cn3)CC1)C(C)(C)CCC2(C)C,,"Sprague-Dawley rat, male","oral, 100 mg/kg, 9 h, sesame oil vehicle",,blood cholesterol,68 ± 9.9 mg/dL
CC(O)c1cc(Cl)ccc1Cn1c(=S)[nH]c(=O)c2[nH]ccc21 (centres unmarked),,"dog, both sexes, plasma",100 mg/kg,baseline: dog over human 15 mg,exposure ratio,not detected
CC(C)(Sc1ccncc1-c1ccc(C#N)c2ccccc12)C(=O)OC1OC(C(=O)O)C(O)C(O)C1O (centres unmarked),,"adult men, plasma","oral, 15 mg verinurad, severe renal impairment",baseline: normal renal function,AUC(0-inf) increase,316%
CC[C@H](C)[C@H](NC(=O)[C@H](N)Cc1ccc(O)cc1)C(=O)N[C@H]1CSSC[C@@H](C(=O)N(C)[C@H](C(N)=O)[C@@H](C)CC)NC(=O)[C@H](CCCNC(=N)N)NC(=O)[C@H](Cc2c[nH]cn2)NC(=O)[C@H](C)NC(=O)CN(C)C(=O)[C@H](Cc2c[nH]c3ccccc23)NC(=O)[C@H](CC(=O)O)NC(=O)[C@H](CCC(N)=O)NC(=O)[C@H](Cc2cn(C)c3ccccc23)NC(=O)[C@H](C(C)C)NC1=O,UPLC-ESI-MS,cynomolgus monkey plasma,"3.58 µg/mL, 48 h, 25 °C, bench-top after SPE",,recovery,102 ± 4%
CC=C1C(OC2OC(CO)C(O)C(O)C2O)OC=C(C(=O)OC)C1CC(=O)OCC1OC(OCCc2ccc(O)cc2)C(O)C(O)C1O (centres unmarked),,"mouse intestinal contents, anaerobic","10 µg/mL, 1 h",,metabolized parent drug,100%
N=C(N)NCCC[C@@H]1NC(=O)[C@H](Cc2c[nH]c3ccccc23)NC(=O)[C@@H](CC2CCCCC2)NC(=O)[C@@H]2CCCN2C(=O)[C@@H](NC(=O)CCc2ccccc2)CCCNC1=O,,"C57BL/6J mice, brain","intravenous, 1 mg/kg, two-compartment model",,apparent distributional clearance,43.7 ng/(min·ng/g)
O=C(NCCCN(CCCCN(CCCNC(=O)c1cccc(=O)n1[O-])C(=O)c1cccc(=O)n1[O-])C(=O)c1cccc(=O)n1[O-])c1cccc(=O)n1[O-].[89Zr+4],radio-TLC,PBS,"1 d, pH 7.4, 37 °C, with: Ni^2+ 10-fold excess",,intact complex,98.4 ± 2.2%
COC(=O)C(c1ccccc1Cl)N1CCC(SCC(=O)c2cccc(OC)c2)C(=CC(=O)O)C1 (mixture of isomers),HPLC-MS/MS,feline citrate plasma,"100 ng/mL, 12 h, -20 °C, storage stability",,deviation from nominal,-9%
O=C(N[C@@H](CC1CCCCC1)C(=O)N[C@@H](C[C@H]1CCNC1=O)C(=O)C(=O)NC1CC1)OCc1cccc(Cl)c1,,"rat, Sprague-Dawley, female, plasma","oral, 10 mg/kg",,volume of distribution,0.0019 (mg/kg)/(ng/mL)
CC(=O)N[C@H](CCCCN)C(=O)N[C@H](CC(C)C)C(=O)N[C@H](CCCCN)C(=O)N[C@H](CO)C(=O)N[C@H](CC(C)C)C(=O)N[C@H](CC(C)C)C(=O)N[C@H](CCCCN)C(=O)N[C@@H](C(=O)N[C@H](CC(C)C)C(=O)N[C@H](CO)C(=O)N[C@H](CCCCN)C(=O)N[C@H](C)C(=O)N[C@H](CCCCN)C(=O)N[C@H](CCCCN)C(=O)N[C@H](CCCCN)C(=O)N[C@H](CC(C)C)C(=O)N[C@H](CC(C)C)C(=O)N[C@H](CCCCN)C(=O)N[C@@H](C(=O)N[C@H](C)C(=O)N[C@H](CC(C)C)C(=O)N[C@H](CCCCN)C(=O)N[C@H](C)C(=O)N[C@H](CC(C)C)C(=O)N[C@H](CO)C(=O)N[C@H](CCCCN)C(N)=O)[C@H](C)O)[C@H](C)O,RP-HPLC temperature profiling,,"pH 2, 5-80 °C, unit not given",baseline: control peptide,self-association parameter,7.4
CC[C@H](C)[C@H](NC(=O)[C@H](Cc1ccccc1)NC(=O)[C@H](CCCCN)NC(=O)[C@H](CCCNC(=N)N)NC(=O)[C@H](Cc1ccccc1)NC(=O)[C@H](Cc1ccccc1)NC(=O)[C@H](CCCCN)NC(=O)[C@H](CO)NC(=O)[C@H](CC(C)C)NC(=O)[C@H](CCCNC(=N)N)NC(=O)[C@H](CCSC)NC(=O)[C@H](C)N)C(=O)N[C@@H](CC(C)C)C(=O)N[C@@H](CN)C(=O)N[C@@H](CCCNC(=N)N)C(=O)N[C@@H](CCCCN)C(=O)N[C@@H](CCCCN)C(=O)O,circular dichroism,20% TFE in PBS,"200 µM, pH 7.4, 25 °C",,helicity,16.4%
Cc1ccccc1/N=N/c1ccc(/N=N/c2c(O)ccc3ccccc23)c(C)c1,,extracted rat blood QC samples,"0.2 µg/L, 4 h, room temperature, short-term stability",,measured concentration,0.213 µg/L
COc1ccc(/C=C/C2=[N+]3C(=C(CO)c4c(C)cc(/C=C/c5ccc(OC)cc5)n4[B-]3(F)F)C(C)=C2C=O)cc1,,DMSO/methanol 1:1,"1 h, with: 645 nm light, 9.00 J/cm2",,photostability,unstable
OC1(C(F)(F)F)CCN(c2nc(Nc3ccnc(C(F)(F)F)c3)nc(-c3cccc(C(F)(F)F)n3)n2)C1 (centres unmarked),,"monkey, blood","oral, 3 mg/kg",,oral bioavailability,114%
C[C@H](NC(=O)COC(=O)[C@H](C)NC(=O)CO)C(=O)O,,water,"pH 7, 37 °C",,depolymerization half-life,7.2 min
CC(=O)N[C@@H](CC(N)=O)C(=O)NCC(=O)N[C@@H](C)C(=O)N[C@@H](C)C(N)=O,1H NMR,sodium phosphate buffer 50 mM,"pH 7.4, 28 °C",,half-life of Asn form,148 h
CC12CC(c3ccc(S(C)(=O)=O)cc3)C3=C4CCC(=O)C=C4CCC3C1CCC2(O)C(F)(F)C(F)(F)F (centres unmarked),,"human, plasma","intravenous infusion, 15.7 µg [14C]-labelled, 30 min infusion, microdose 1.5 to 2 h after oral 4 mg",,"AUC(0-24h), geometric mean",0.98 ng·h/mL
CCCC(CCC)NC(=O)c1ccc(OC2OC(C(=O)O)C(O)C(O)C2O)c(O)c1 (centres unmarked),,"male Sprague-Dawley rat, plasma","oral, 20 mg/kg of parent drug",,Tmax,7 h
CC[C@H](C)[C@@H]1NC(=O)[C@H](Cc2ccccc2)NC(=O)[C@@H](NC(=O)[C@H](CCCNC(=N)N)NC(=O)[C@H](Cc2ccccc2)NC(=O)[C@H](Cc2ccccc2)NC(=O)[C@H](CCCCN)NC(=O)[C@H](CO)NC(=O)[C@H](CC(C)C)NC(=O)[C@H](CCCNC(=N)N)NC(=O)[C@H](CCSC)NC(=O)[C@H](C)N)CCCNC(=O)NC[C@@H](C(=O)N[C@@H](CCCNC(=N)N)C(=O)N[C@@H](CCCCN)C(=O)N[C@@H](CCCCN)C(=O)O)NC(=O)[C@H](CC(C)C)NC1=O,circular dichroism,20% TFE in PBS,"200 µM, pH 7.4, 25 °C",,helicity,19.8%
COc1ccc2cc(-c3ccc(-c4ccc(C)cn4)nc3)oc2c1,TCSPC,MeCN,,,fluorescence lifetime,1.84 ns
